Published values from different studies.
Compare with care: the assays were run in different laboratories. Several values in a cell are separate wells, animals, samples, runs or records. Numbers after ± are the reported error.
ADORA1: Adenosine receptor A1 (ADORA1, Homo sapiens, UniProt P30542)
Sequence of UniProt P30542 (whole entry, looked up): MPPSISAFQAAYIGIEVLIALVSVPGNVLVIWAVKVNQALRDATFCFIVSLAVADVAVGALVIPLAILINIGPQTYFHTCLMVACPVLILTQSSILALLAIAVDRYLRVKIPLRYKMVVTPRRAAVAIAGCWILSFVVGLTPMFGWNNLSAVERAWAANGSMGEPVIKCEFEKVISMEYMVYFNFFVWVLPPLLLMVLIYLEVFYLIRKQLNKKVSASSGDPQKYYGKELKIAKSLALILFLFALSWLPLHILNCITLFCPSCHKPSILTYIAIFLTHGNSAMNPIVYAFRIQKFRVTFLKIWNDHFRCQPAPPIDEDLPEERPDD
Bone morphogenetic protein 2: Bone morphogenetic protein 2 (Homo sapiens, UniProt P12643)
Sequence of UniProt P12643 (whole entry, looked up): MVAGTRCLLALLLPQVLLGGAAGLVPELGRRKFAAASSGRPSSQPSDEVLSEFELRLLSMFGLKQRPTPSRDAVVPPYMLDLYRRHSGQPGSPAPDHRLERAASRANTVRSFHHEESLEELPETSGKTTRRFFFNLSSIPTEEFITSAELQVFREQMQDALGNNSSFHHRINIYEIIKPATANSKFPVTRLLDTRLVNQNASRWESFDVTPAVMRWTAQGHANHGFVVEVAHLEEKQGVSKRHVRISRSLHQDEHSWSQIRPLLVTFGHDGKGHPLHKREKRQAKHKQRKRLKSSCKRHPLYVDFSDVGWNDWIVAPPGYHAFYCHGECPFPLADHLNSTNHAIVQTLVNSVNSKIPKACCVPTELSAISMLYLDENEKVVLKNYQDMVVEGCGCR
ABO G235S/G268A/L266M/R176G: Histo-blood group ABO system transferase (ABO, Homo sapiens, UniProt P16442, G235S/G268A/L266M/R176G)
Sequence of UniProt P16442 (whole entry, unmodified, looked up): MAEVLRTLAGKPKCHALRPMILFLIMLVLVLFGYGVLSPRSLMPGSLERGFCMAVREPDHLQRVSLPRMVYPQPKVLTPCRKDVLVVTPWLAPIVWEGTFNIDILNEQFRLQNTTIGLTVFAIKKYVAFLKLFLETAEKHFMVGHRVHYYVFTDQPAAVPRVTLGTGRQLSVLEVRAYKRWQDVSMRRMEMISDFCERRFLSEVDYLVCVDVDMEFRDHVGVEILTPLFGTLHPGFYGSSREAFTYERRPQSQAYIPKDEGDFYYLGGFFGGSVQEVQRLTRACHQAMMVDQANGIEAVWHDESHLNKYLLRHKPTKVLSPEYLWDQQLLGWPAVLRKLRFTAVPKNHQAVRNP
RIPK1: Receptor-interacting serine/threonine-protein kinase 1 (RIPK1, Homo sapiens, UniProt Q13546)
Sequence of UniProt P07814 (whole entry, looked up): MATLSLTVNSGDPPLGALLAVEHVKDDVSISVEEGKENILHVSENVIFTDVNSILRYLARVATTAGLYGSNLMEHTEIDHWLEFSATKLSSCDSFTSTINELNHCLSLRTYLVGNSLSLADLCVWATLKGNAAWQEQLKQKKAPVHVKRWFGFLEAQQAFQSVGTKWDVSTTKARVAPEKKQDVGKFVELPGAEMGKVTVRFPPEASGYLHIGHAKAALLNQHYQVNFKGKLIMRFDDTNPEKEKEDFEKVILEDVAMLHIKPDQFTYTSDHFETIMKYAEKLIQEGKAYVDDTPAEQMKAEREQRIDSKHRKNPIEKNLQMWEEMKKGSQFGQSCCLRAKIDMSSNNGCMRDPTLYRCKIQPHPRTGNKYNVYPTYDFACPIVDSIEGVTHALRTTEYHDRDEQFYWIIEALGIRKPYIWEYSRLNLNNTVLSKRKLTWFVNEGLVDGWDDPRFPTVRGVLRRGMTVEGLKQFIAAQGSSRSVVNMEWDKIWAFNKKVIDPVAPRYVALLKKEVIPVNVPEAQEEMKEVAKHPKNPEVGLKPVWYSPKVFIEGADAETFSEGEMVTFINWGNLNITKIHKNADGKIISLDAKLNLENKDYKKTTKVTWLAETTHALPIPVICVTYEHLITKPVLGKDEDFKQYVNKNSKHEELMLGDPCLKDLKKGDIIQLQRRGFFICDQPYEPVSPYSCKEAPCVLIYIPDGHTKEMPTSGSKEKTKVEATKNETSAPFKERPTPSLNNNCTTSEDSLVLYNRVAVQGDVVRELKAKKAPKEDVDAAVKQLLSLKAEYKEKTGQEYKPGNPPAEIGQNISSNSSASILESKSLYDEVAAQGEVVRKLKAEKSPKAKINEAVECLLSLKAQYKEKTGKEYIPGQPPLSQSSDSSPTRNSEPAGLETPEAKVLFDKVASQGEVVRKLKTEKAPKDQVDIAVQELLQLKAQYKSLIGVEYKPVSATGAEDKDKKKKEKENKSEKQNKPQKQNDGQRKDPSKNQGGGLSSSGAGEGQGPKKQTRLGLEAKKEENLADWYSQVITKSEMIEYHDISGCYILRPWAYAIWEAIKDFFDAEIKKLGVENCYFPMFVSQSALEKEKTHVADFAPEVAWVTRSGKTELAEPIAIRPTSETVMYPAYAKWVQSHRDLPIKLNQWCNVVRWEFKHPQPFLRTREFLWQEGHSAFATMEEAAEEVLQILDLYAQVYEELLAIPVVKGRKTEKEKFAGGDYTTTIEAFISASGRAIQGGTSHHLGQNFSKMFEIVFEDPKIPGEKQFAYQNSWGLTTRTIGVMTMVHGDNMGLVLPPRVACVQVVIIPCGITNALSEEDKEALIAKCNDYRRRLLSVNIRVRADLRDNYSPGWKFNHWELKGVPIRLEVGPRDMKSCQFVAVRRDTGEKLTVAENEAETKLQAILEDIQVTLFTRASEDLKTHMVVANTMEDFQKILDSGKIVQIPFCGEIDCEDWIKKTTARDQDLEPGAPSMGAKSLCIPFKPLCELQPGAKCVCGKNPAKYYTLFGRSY
Sequence of UniProt Q13546 (whole entry, looked up): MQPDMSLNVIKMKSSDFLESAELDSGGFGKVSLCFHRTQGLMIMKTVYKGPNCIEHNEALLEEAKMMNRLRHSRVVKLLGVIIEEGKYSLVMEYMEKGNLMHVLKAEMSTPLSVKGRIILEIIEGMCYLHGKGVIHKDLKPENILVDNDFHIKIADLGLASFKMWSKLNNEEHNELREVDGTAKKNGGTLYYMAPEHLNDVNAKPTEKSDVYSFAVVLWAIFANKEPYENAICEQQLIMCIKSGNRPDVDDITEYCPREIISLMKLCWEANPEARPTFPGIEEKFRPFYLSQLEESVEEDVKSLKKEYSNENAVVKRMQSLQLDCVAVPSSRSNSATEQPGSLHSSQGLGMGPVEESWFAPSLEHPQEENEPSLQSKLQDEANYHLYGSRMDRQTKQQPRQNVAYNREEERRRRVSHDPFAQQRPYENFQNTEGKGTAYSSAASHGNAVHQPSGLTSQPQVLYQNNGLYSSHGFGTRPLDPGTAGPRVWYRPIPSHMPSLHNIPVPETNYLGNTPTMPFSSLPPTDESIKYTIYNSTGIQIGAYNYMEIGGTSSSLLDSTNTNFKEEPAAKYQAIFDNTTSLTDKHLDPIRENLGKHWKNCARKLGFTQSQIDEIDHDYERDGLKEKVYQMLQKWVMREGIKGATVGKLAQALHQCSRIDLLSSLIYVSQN
Sequence of UniProt P05067 (whole entry, looked up): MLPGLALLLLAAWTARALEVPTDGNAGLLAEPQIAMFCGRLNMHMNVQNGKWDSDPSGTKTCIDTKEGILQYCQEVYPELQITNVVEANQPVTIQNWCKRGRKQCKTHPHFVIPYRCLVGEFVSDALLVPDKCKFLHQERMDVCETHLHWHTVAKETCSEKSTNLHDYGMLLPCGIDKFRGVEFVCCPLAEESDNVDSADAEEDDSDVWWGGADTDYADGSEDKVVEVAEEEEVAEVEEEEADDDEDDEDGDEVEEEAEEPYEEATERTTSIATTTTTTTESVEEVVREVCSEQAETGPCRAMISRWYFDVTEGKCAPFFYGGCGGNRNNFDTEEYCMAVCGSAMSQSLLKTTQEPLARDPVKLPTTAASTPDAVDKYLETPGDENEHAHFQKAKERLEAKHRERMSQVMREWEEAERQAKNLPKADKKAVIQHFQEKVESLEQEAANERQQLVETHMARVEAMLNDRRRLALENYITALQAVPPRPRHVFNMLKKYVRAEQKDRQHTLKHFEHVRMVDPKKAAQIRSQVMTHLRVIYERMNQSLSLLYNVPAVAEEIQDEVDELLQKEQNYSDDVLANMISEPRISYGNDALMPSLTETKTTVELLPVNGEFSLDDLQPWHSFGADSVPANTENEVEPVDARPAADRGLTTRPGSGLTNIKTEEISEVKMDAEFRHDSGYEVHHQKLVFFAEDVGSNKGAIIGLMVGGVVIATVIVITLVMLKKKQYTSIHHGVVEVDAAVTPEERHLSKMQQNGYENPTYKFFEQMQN
Sequence of UniProt Q15717 (whole entry, looked up): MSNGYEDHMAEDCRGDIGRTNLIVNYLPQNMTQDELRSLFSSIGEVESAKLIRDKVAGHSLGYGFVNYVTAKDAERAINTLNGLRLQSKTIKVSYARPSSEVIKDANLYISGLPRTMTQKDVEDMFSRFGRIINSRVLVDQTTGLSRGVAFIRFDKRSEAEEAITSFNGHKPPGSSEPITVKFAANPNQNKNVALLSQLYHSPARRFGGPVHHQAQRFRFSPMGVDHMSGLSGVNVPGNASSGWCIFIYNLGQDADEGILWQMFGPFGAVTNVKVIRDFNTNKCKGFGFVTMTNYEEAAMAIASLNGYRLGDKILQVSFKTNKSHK
Sequence of UniProt Q92879 (whole entry, unmodified, looked up): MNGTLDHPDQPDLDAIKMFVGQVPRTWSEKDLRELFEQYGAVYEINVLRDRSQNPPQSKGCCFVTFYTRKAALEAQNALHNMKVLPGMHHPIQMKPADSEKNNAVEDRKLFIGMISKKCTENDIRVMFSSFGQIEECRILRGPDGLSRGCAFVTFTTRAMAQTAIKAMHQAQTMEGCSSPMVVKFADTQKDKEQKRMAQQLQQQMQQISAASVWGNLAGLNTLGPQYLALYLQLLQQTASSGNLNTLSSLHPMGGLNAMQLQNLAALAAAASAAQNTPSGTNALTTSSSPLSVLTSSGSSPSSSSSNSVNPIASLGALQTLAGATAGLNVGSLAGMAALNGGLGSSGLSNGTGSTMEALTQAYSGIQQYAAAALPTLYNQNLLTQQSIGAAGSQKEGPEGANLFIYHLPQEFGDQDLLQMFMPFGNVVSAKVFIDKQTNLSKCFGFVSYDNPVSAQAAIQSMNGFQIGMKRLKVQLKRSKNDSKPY

SMILES = CN(C)CCNC(=O)c1cccc2c(NCCCCc3c(N)nc(N)nc3N)c3ccccc3nc12; target = RNA with A–A mismatch; assay = binding, ITC; setting = 25 °C, 1; Kd = 118000 nM and > 100000 nM
SMILES = CCCn1c(=O)c2[nH]c(-c3ccc(OCC(=O)NCCNC(=O)CCCCCNC(=O)CCCCCNS(=O)(=O)c4cccc5c(N(C)C)cccc45)cc3)nc2n(CCC)c1=O; target = ADORA1; assay = CRE reporter gene, antagonist; test system = CHO-A1; setting = Gs response, PTX-pretreated overnight, together with: NECA and forskolin; Kd = 102 nM
SMILES = CC(=O)N[C@@H]1[C@@H](O[C@@H]2O[C@H](C(=O)O)[C@@H](O[C@@H]3O[C@H](COS(=O)(=O)O)[C@@H](OS(=O)(=O)O)[C@H](O[C@@H]4O[C@H](C(=O)O)[C@@H](OS(=O)(=O)O)[C@H](OS(=O)(=O)O)[C@H]4OS(=O)(=O)O)[C@H]3NC(C)=O)[C@H](OS(=O)(=O)O)[C@H]2OS(=O)(=O)O)[C@H](OS(=O)(=O)O)[C@@H](COS(=O)(=O)O)O[C@H]1n1ccnn1; target = Bone morphogenetic protein 2; assay = ligand displacement, FP; Kd = 2810 nM
SMILES = Cc1n(Cc2ccc(N=[N+]=[N-])cc2)c2c([n+]1CCOCCOCCNC(=O)CCCC[C@@H]1SC[C@@H]3NC(=O)N[C@@H]31)C(=O)c1ccccc1C2=O; target = RIPK2 (Homo sapiens, UniProt O43353); assay = binding; Kd = ~2300 nM
SMILES = Cc1ccc(Oc2nc3cc(-c4ccc5c(ccn5C)c4)c(Cl)cc3[nH]2)cc1C(=O)O; target = PRKAA1/PRKAB1, phosphorylated; with gamma1 (Homo sapiens, UniProt Q13131+Q9Y478, R83A); assay = biolayer interferometry; setting = AMPK complex α1(R83A)β1γ1; Kd = 1900 nM
SMILES = COc1cccc(CC(C)C(=O)Nc2ccc3[nH]c(-c4cscn4)nc3c2)c1 (centres unmarked); target = Kcnb1 (Rattus norvegicus, UniProt P15387); assay = ion current, blocker, patch clamp; Kd = 6.2 ± 1.2 nM
SMILES = C=CCCCCCCO[C@@H]1O[C@H](CO)[C@@H](O[C@@H]2O[C@H](CO)[C@H](O)[C@H](O)[C@H]2O[C@@H]2O[C@@H](C)[C@@H](O)[C@@H](O)[C@@H]2O)[C@H](O)[C@H]1NC(C)=O; target = ABO G235S/G268A/L266M/R176G; assay = methyl-TROSY NMR titration lineshape; setting = two-state binding model, together with: acceptor binding, saturating UDP; Kd = 10000 ± 1000 nM
SMILES = [123I]c1ccc2nc(-c3ccc(-n4ccnn4)nc3)cn2c1; target = Amyloid-beta precursor protein, amyloid-beta plaques (APP, Homo sapiens, UniProt P05067); Kd = 1.8 nM and 1.83 nM
SMILES = Cc1cccc2c1N(C(=O)n1ccnn1)CC2; target = KAI2 (Arabidopsis thaliana, UniProt Q9SZU7); assay = binding, ITC; Kd = 27700 nM
SMILES = O=C(N[C@@H](Cc1ccc(OCCCCC2CCNCC2)cc1)C(=O)O)c1nc2ccccc2o1; target = Albumin (ALB, Homo sapiens, UniProt P02768); assay = binding; test system = human plasma; setting = ODE model from unbound fraction, 639 µM albumin; Kd = 6110 nM
SMILES = CS[C@@H]1O[C@H](COS(=O)(=O)O)[C@@H](OS(=O)(=O)O)[C@H](O[C@@H]2O[C@H](C(=O)O)[C@@H](O[C@@H]3O[C@H](COS(=O)(=O)O)[C@@H](OS(=O)(=O)O)[C@H](O[C@@H]4O[C@H](C(=O)O)[C@@H](OS(=O)(=O)O)[C@H](OS(=O)(=O)O)[C@H]4OS(=O)(=O)O)[C@H]3NC(C)=O)[C@H](OS(=O)(=O)O)[C@H]2OS(=O)(=O)O)[C@H]1NC(C)=O; target = Bone morphogenetic protein 2; assay = ligand displacement, FP; Kd = 2360 nM
SMILES = CC(C)C[C@H](NC(=O)[C@H](CC(C)C)NC(=O)[C@H](CC(=O)O)NC(=O)[C@@H](N)CCCCN)C(=O)N[C@@H](CCC(=O)O)C(=O)N[C@@H](CCC(N)=O)C(=O)N[C@@H](CCCCN)C(=O)N[C@@H](CCCNC(=N)N)C(=O)N[C@@H](C)C(=O)N[C@@H](C)C(=O)N[C@H](C(=O)N[C@@H](CC(=O)O)C(=O)N[C@H](C(=O)N[C@@H](Cc1ccc(O)cc1)C(=O)N[C@@H](CS)C(=O)O)[C@@H](C)O)C(C)C; target = Calreticulin, citrullinated (Calr, Mus musculus, UniProt P14211); assay = SPR; setting = pH 7.4, 25 °C; Kd = 84 ± 3e-08 nM
SMILES = CC(=O)N[C@@H]1[C@@H](O[C@@H]2O[C@H](C(=O)O)[C@@H](O[C@@H]3O[C@H](COS(=O)(=O)O)[C@@H](OS(=O)(=O)O)[C@H](O[C@@H]4O[C@H](C(=O)O)[C@@H](O[C@@H]5O[C@H](COS(=O)(=O)O)[C@@H](OS(=O)(=O)O)[C@H](O[C@@H]6O[C@H](C(=O)O)[C@@H](OS(=O)(=O)O)[C@H](OS(=O)(=O)O)[C@H]6OS(=O)(=O)O)[C@H]5NC(C)=O)[C@H](OS(=O)(=O)O)[C@H]4OS(=O)(=O)O)[C@H]3NC(C)=O)[C@H](OS(=O)(=O)O)[C@H]2OS(=O)(=O)O)[C@H](OS(=O)(=O)O)[C@@H](COS(=O)(=O)O)O[C@H]1N=[N+]=[N-]; target = Antithrombin-III (SERPINC1, Homo sapiens, UniProt P01008); assay = ligand displacement, FP; Kd = 650 nM
SMILES = COc1cc(-c2nc3ccc(C(=O)NCCCN(C)C)cc3n2C2CCC2)cc(OC)c1OC; target = BMPR1A (Homo sapiens, UniProt P36894); assay = binding, TR-FRET; Kd = 541 nM
SMILES = CC(=O)N[C@@H]1[C@@H](O[C@@H]2O[C@H](C(=O)O)[C@@H](OS(=O)(=O)O)[C@H](OS(=O)(=O)O)[C@H]2OS(=O)(=O)O)[C@H](OS(=O)(=O)O)[C@@H](COS(=O)(=O)O)O[C@H]1N=[N+]=[N-]; target = Bone morphogenetic protein 2; assay = ligand displacement, FP; Kd = 110000 nM
SMILES = CC(=O)N[C@@H](CCCCN)C(=O)NCCCCCC(=O)N[C@H](C(=O)N[C@@H](CO)C(=O)N[C@@H](Cc1ccccc1)C(=O)N[C@]1(C)CCCCCCCCCCC[C@@](C)(C(=O)N[C@@H](CCC(=O)O)C(=O)N[C@@H](CC(N)=O)C(=O)N[C@@H](Cc2ccccc2)C(N)=O)NC(=O)[C@H](CC(C)C)NC(=O)[C@H](CC(C)C)NC(=O)[C@H](C)NC(=O)[C@H](Cc2c[nH]c3ccccc23)NC(=O)[C@H](Cc2ccc(O)cc2)NC(=O)[C@H](CCC(=O)O)NC1=O)[C@@H](C)O; target = MDM2 (Homo sapiens, UniProt Q00987); assay = cell-free assay, FP; setting = pH 7.4; Kd = 114 nM
SMILES = O=C(Cc1cccc(C(F)(F)F)c1)Nc1cc(Oc2c(Br)cc3nc(NC(=O)C4CC4)sc3c2Br)ccc1F; target = RIPK1; assay = binding, competition with immobilised ligand; Kd = 270 nM
SMILES = CN(C)c1cc2ccccc2c(N)n1; target = CUGBP Elav-like family member 1, RRM1/2 domains (CELF1, Homo sapiens, UniProt Q92879, S147A); assay = isothermal titration calorimetry; setting = 25 °C; Kd = 9200 ± 1600 nM
SMILES = Cc1cc(N2CC[C@](C#N)(C3(C)CC3)C2=O)cc(C(=O)NCc2cc(F)cc(-c3cnn(C)c3)c2)n1; target = Bifunctional glutamate/proline--tRNA ligase, prolyl-tRNA synthetase domain (EPRS1, Homo sapiens, UniProt P07814); assay = binding, microscale thermophoresis; Kd = 1790 nM and 1160 nM
SMILES = O=c1[nH]cnc2c(CN3C[C@H](O)[C@@H](O)C3)c[nH]c12; target = PNP (Homo sapiens, UniProt P00491); assay = enzyme activity, inhibitor; setting = pH 7.4, 25 °C, first subunit slow-onset, together with: 50 mM phosphate; Kd = 53 ± 2 nM
SMILES = CCCn1c(=O)c2[nH]c(-c3ccc(OCC(=O)NCCNS(=O)(=O)c4cccc5c(N(C)C)cccc45)cc3)nc2n(CCC)c1=O; target = ADORA1; assay = CRE reporter gene, antagonist; test system = CHO-A1; setting = Gs response, PTX-pretreated overnight, together with: NECA and forskolin; Kd = 60.3 nM
SMILES = CC(=O)c1cnc(N)nc1N1CC[C@H]1c1nn2ccc(Cl)c2c(=O)n1-c1ccccc1; target = Phosphatidylinositol 4,5-bisphosphate 3-kinase catalytic subunit alpha isoform, with p85 (PIK3CA, Homo sapiens, UniProt P42336); assay = binding, SPR; Kd = 2420 nM
SMILES = COc1ccc(SC2=CC(=O)C(=O)c3c(-c4c(C)cccc4C)cn(S(=O)(=O)c4ccccc4)c32)cc1; target = ELAV-like protein 1 (ELAVL1, Homo sapiens, UniProt Q15717); assay = binding, SPR; Kd = 8590 nM
SMILES = Nc1ncnc2c1ncn2[C@@H]1O[C@H](CO)[C@@H](O[C@H]2O[C@H](CO)[C@@H](OP(=O)(O)O)[C@H](OP(=O)(O)O)[C@H]2O)[C@H]1O; target = Inositol 1,4,5-trisphosphate-gated calcium channel ITPR1, N-terminal region (Itpr1, Rattus norvegicus, UniProt P29994, del318-332); assay = [3H]IP3 competition binding; test system = N-terminal fragment; setting = cytosol-like medium; Kd = 77.2 nM
SMILES = C=CCCCCCCO[C@@H]1O[C@H](CO)[C@@H](O)[C@H](O[C@@H]2O[C@H](CO)[C@H](O)[C@H](O)[C@H]2O[C@@H]2O[C@@H](C)[C@@H](O)[C@@H](O)[C@@H]2O)[C@H]1NC(C)=O; target = ABO G235S/G268A/L266M/R176G; assay = methyl-TROSY NMR titration lineshape; setting = two-state binding model, together with: acceptor binding, saturating UDP; Kd = 44000 ± 2000 nM
SMILES = N=C(N)NCCC[C@H](NC(=O)[C@H](CS)NC(=O)[C@H](Cc1ccc(O)cc1)NC(=O)[C@H](Cc1c[nH]c2ccccc12)NC(=O)[C@H](CCCNC(=N)N)NC(=O)[C@H](Cc1c[nH]c2ccccc12)NC(=O)CNC(=O)[C@H](Cc1c[nH]cn1)NC(=O)CNC(=O)CN)C(N)=O; target = HIV RRE IB RNA; assay = fluorescein-labelled RNA titration; setting = 1 mM TCEP; Kd = 9000 ± 1000 nM
SMILES = O=C(Cc1cccc(C(F)(F)F)c1)Nc1cc(Oc2c(F)cc3nc(NC(=O)C4CC4)sc3c2F)ccc1F; target = RIPK1; assay = binding, competition with immobilised ligand; Kd = 96 nM
SMILES = OC1(C#Cc2ccccc2)CCCCC1; target = Microphthalmia-associated transcription factor (Homo sapiens, UniProt O75030); assay = binding, NMR; Kd = 207000 nM
SMILES = COc1cc2c(cc1-c1c(C)noc1C)ncc1[nH]c(=O)n([C@H](C)c3ccccn3)c12; target = Bromodomain factor 2 (Trypanosoma brucei brucei, UniProt Q38AM1); assay = ITC; setting = 15 °C; Kd = 94000 ± 18000 nM
SMILES = CCCCCCCCO[C@@H]1O[C@H](CO)[C@H](O)C[C@H]1O[C@@H]1O[C@@H](C)[C@@H](O)[C@@H](O)[C@@H]1O; target = ABO G235S/G268A/L266M/R176G; assay = binding, methyl-TROSY NMR titration; setting = together with: saturating UDP-Glc; Kd = 120000 ± 10000 nM
SMILES = CCCn1c(=O)c2[nH]c(-c3ccc(OCC(=O)NCCNC(=O)CCCCCCCNS(=O)(=O)c4cccc5c(N(C)C)cccc45)cc3)nc2n(CCC)c1=O; target = ADORA1; assay = CRE reporter gene, antagonist; test system = CHO-A1; setting = Gs response, PTX-pretreated overnight, together with: NECA and forskolin; Kd = 95.5 nM
SMILES = Nc1ncnc2c1ncn2[C@@H]1O[C@@H](CN(CCCNc2ncnc3c2ncn3[C@H]2O[C@@H](CO)[C@@H](O)[C@H]2O)CC[C@H](N)C(=O)O)[C@@H](O)[C@H]1O; target = Ribosomal RNA large subunit methyltransferase J (rlmJ, Escherichia coli, UniProt P37634); Kd = 30000 ± 4000 nM

Excerpt of the above:
SMILES = CC(C)C[C@H](NC(=O)[C@H](CC(C)C)NC(=O)[C@H](CC(=O)O)NC(=O)[C@@H](N)CCCCN)C(=O)N[C@@H](CCC(=O)O)C(=O)N[C@@H](CCC(N)=O)C(=O)N[C@@H](CCCCN)C(=O)N[C@@H](CCCNC(=N)N)C(=O)N[C@@H](C)C(=O)N[C@@H](C)C(=O)N[C@H](C(=O)N[C@@H](CC(=O)O)C(=O)N[C@H](C(=O)N[C@@H](Cc1ccc(O)cc1)C(=O)N[C@@H](CS)C(=O)O)[C@@H](C)O)C(C)C; target = Calreticulin, citrullinated (Calr, Mus musculus, UniProt P14211); assay = SPR; setting = pH 7.4, 25 °C; Kd = 84 ± 3e-08 nM
SMILES = CC(=O)N[C@@H]1[C@@H](O[C@@H]2O[C@H](C(=O)O)[C@@H](O[C@@H]3O[C@H](COS(=O)(=O)O)[C@@H](OS(=O)(=O)O)[C@H](O[C@@H]4O[C@H](C(=O)O)[C@@H](O[C@@H]5O[C@H](COS(=O)(=O)O)[C@@H](OS(=O)(=O)O)[C@H](O[C@@H]6O[C@H](C(=O)O)[C@@H](OS(=O)(=O)O)[C@H](OS(=O)(=O)O)[C@H]6OS(=O)(=O)O)[C@H]5NC(C)=O)[C@H](OS(=O)(=O)O)[C@H]4OS(=O)(=O)O)[C@H]3NC(C)=O)[C@H](OS(=O)(=O)O)[C@H]2OS(=O)(=O)O)[C@H](OS(=O)(=O)O)[C@@H](COS(=O)(=O)O)O[C@H]1N=[N+]=[N-]; target = Antithrombin-III (SERPINC1, Homo sapiens, UniProt P01008); assay = ligand displacement, FP; Kd = 650 nM
